# Results from different studies.
Structure (SMILES),test system,conditions,Tmax
Cc1cc(Nc2nc(C[C@@]3(C(=O)O)CCN(Cc4cccc(Cl)c4F)[C@H](C)C3)cc(C)c2F)n[nH]1,"beagle dog, plasma","oral, 1 mg/kg, single dose",0.417 h
[2H]C([2H])([2H])C([2H])([2H])C([2H])([2H])OC(C(=O)OC1CCNCC1)(c1ccccc1)c1ccccc1,"male human, plasma","oral, 15 mg, multiple doses",3.4 h
CC[C@@H]1C[C@]1(NC(=O)[C@@H]1C[C@@]2(CN1C(=O)[C@@H](NC(=O)[C@@H](NC(=O)[C@@H]1CCCCN1C(C)C)C1CCCCC1)C(C)(C)C)C(C)(C)C21CCC1)C(=O)NS(=O)(=O)N1CCCC1,"human, plasma","oral, 100 mg, single dose, fed",~2 h
CC(C)(CCCC/C=C/CCCCCC(C)(C)C(=O)O)C(=O)O,"beagle dog, plasma","oral, 5 mg/kg",0.25 h
COc1cc(NC(=O)C(=O)c2c(C)n(Cc3ccc(Cl)cc3)c3ccc(C)cc23)ccn1,"male cynomolgus monkey, plasma","oral, 10 mg/kg",3.2 h
CSCC[C@H](NC(=O)CNC(=O)[C@H](CC(=O)O)NC(=O)[C@@H](NC(=O)[C@@H](NC(=O)[C@@H](NC(=O)CNC(=O)[C@H](CCC(N)=O)NC(=O)[C@H](CCSC)NC(=O)[C@H](CC(=O)O)NC(=O)[C@H](C)NC(=O)[C@H](C)NC(=O)[C@@H](NC(=O)[C@H](CO)NC(=O)[C@@H](N)CC(C)C)[C@@H](C)O)C(C)C)C(C)C)[C@@H](C)O)C(=O)N[C@@H](C)C(=O)N[C@@H](CO)C(=O)NCC(=O)N[C@@H](CC(C)C)C(=O)N[C@@H](CC(=O)O)C(=O)N[C@@H](CCCCN)C(=O)N[C@@H](CC(=O)O)C(=O)N[C@@H](Cc1ccc(O)cc1)C(=O)N[C@@H](CC(C)C)C(=O)N[C@@H](CCCCN)C(=O)N1CCC[C@H]1C(=O)N[C@@H](CC(=O)O)C(=O)N[C@@H](CC(=O)O)C(=O)O,"human, serum","intravenous, 4.16 mg/kg, patients, infusion",0.08 h
Cc1ccc2c(n1)c(-c1cccc(S(C)(=O)=O)c1)c(C)n2C/C(F)=C/CN,"healthy male subjects, plasma","oral capsule, dose not given, single ascending dose",3 h
CC[C@H](C)C(=O)N1CCC(NC(=O)Nc2ccc(OC(F)(F)F)c(F)c2)CC1,"human, plasma","oral, 2 mg, single dose, healthy volunteers",1.25 h

# A few entries again:
Structure (SMILES),test system,conditions,Tmax
CC[C@@H]1C[C@]1(NC(=O)[C@@H]1C[C@@]2(CN1C(=O)[C@@H](NC(=O)[C@@H](NC(=O)[C@@H]1CCCCN1C(C)C)C1CCCCC1)C(C)(C)C)C(C)(C)C21CCC1)C(=O)NS(=O)(=O)N1CCCC1,"human, plasma","oral, 100 mg, single dose, fed",~2 h
